Measured values of several laboratories.
Compare with care: the assays were run in different laboratories. ± gives the spread as reported.
OPRM1: Mu-type opioid receptor (OPRM1, Homo sapiens, UniProt P35372)
Chain of UniProt P35372 (whole entry, looked up): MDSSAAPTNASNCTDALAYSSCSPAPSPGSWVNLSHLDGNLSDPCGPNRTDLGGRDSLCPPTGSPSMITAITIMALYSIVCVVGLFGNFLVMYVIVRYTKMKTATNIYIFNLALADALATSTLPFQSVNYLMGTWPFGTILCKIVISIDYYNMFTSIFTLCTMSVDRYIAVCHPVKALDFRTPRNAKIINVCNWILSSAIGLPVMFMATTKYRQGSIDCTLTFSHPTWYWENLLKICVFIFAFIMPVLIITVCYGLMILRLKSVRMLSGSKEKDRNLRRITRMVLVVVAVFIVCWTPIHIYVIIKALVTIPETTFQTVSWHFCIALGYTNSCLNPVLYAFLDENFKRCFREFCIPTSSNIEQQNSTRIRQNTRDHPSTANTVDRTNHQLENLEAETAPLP

SMILES	target	test	conditions	scale	measurement	value
CN(C)[C@H](CNC(=O)/C=C/c1cccc2ccccc12)Cc1ccc(O)cc1	Mu-type opioid receptor, with Gz (OPRM1, Homo sapiens, UniProt P35372)	receptor activation, agonist			Emax	80 ± 3%
C[C@H](NCc1ccc(-c2ccc(C(F)(F)F)cc2)cc1)C(N)=O	OPRM1	radioligand binding, SafetyScreen panel	1 µM, species human, together with: 0.60 nM [3H]Diprenorphine		inhibition	14%
CCc1nnc(-c2c(OC)cc(-c3cnc4cc(-c5cnn(C)c5)ccn34)cc2OC)o1	OPRM1	agonist, radioligand binding	10 µM	reference: control	specific binding	87.4%
COc1ccc2c(c1)[C@]13CCCC[C@@H]1[C@H](C2)N(C)CC3	OPRM1	ligand displacement, radioligand	1 µM		inhibition	31%
N[C@H](C(=O)N1CCCC1)C1CCN(c2nccc3c(-c4ncc(Cl)cc4Cl)cccc23)CC1	OPRM1	functional response, antagonist	10 µM		inhibition	11%
Cc1cc(Nc2nc(C[C@@]3(C(=O)O)CCN(Cc4cccc(Cl)c4F)[C@H](C)C3)cc(C)c2F)[nH]n1	OPRM1	inhibitor	10 µM		inhibition	13.7%
CCCCCCCCCCCCCCCCCC(=O)NC[C@H]1CC[C@H](C(=O)N[C@@H](CCC(=O)NCCCOCCOCCOCCCNC(=O)COCC(=O)N[C@@H](Cc2ccc(O)cc2)C(=O)NC(C)(Cc2ccccc2)C(=O)N[C@@H](CC(C)C)C(=O)N[C@@H](CCCC)C(=O)N[C@@H](CCCNC(=N)N)C(=O)N2CCC[C@H]2C(=O)N[C@@H](CCCNC(=N)NC)C(=O)N[C@@H](CC(N)=O)C(N)=O)C(=O)O)CC1 (some centres unmarked)	OPRM1	antagonist, DiscoverX GPCR panel	1 µM		inhibition	78%
O=C(Cc1ccc(Cl)c(Cl)c1)N1CCNC2COCC(N3CCCC3)C21 (centres unmarked)	OPRM1	radioligand binding	up to 20 µM, together with: [3H]DAMGO		inhibition	≤ 50%
Cc1cc(-c2ccc3ccccc3c2)nnc1NCCN1CCN(C)CC1	OPRM1	antagonist	10000 nM	reference: control	activity	0%
COc1cc2c(cc1NC(=O)c1cncn1C)C[C@H]1[C@H]3CCCC[C@@]23CCN1C	OPRM1	ligand displacement, radioligand	10 µM		inhibition	43.6%
Cc1sc2c(c1C)C(c1ccc(Cl)cc1)=NC(CC(=O)OC(C)(C)C)c1nnc(C)n1-2 (centres unmarked)	OPRM1	ligand displacement, radioligand	1 µM		inhibition	-4%
COc1cc2c(cc1-n1ccnc1)C[C@H]1[C@H]3CCCC[C@@]23CCN1C	OPRM1	ligand displacement, radioligand	1 µM		inhibition	34.5%
CS(C)(=O)=Nc1ccc(-c2ccc(-c3nc4cc(O[C@@H]5CO[C@H]6[C@@H]5OC[C@H]6O)[nH]c4cc3F)cc2)cc1	OPRM1	calcium signal, antagonist	10 µM		inhibition	15%
CN[C@@H]1[C@H](O)[C@H](NC)[C@H]2O[C@]3(O)[C@H](O[C@@H]2[C@H]1O)O[C@H](C)C[C@H]3NC(=O)Cc1cc(Cl)ccn1	OPRM1	ligand displacement, radioligand	10 µM		inhibition	-5%
C[C@@H](Cc1ccsc1)NC(=O)NC[C@H](Cc1ccc(O)cc1)N(C)C	Mu-type opioid receptor, with Gi3 (OPRM1, Homo sapiens, UniProt P35372)	receptor activation, agonist			Emax	68 ± 7%
COc1ccc(F)cc1S(=O)(=O)Nc1cnc2c(c1)C(=O)NCCO2	OPRM1	ligand displacement, radioligand	10 µM		inhibition	-7%
C/C(=N\OCCCN1CCCCC1)c1ccc(C(F)(F)F)cc1	OPRM1	agonist, cAMP	10 µM		activation	-1.49%

A few entries again:
SMILES	target	test	conditions	scale	measurement	value
CS(C)(=O)=Nc1ccc(-c2ccc(-c3nc4cc(O[C@@H]5CO[C@H]6[C@@H]5OC[C@H]6O)[nH]c4cc3F)cc2)cc1	OPRM1	calcium signal, antagonist	10 µM		inhibition	15%
CN[C@@H]1[C@H](O)[C@H](NC)[C@H]2O[C@]3(O)[C@H](O[C@@H]2[C@H]1O)O[C@H](C)C[C@H]3NC(=O)Cc1cc(Cl)ccn1	OPRM1	ligand displacement, radioligand	10 µM		inhibition	-5%
C[C@@H](Cc1ccsc1)NC(=O)NC[C@H](Cc1ccc(O)cc1)N(C)C	Mu-type opioid receptor, with Gi3 (OPRM1, Homo sapiens, UniProt P35372)	receptor activation, agonist			Emax	68 ± 7%
